Values quoted from earlier work that unrelated publications cite.
Protocols differ between the studies behind these lines.

For `Cc1ccccc1-c1cc(N2CCN(C)CC2)ncc1N(C)C(=O)C(C)(C)c1cc(C(F)(F)F)cc(C(F)(F)F)c1`, the Cmax was 660 ng/mL (healthy volunteers; oral, 450 mg single dose, mean, with: palonosetron 0.75 mg).
`CC1=N[C@]2(C(=O)CO)[C@@H](C[C@H]3[C@@H]4C[C@@H](O)C5=CC(=O)C=C[C@]5(C)[C@H]4[C@@H](O)C[C@@]32C)O1` has a Cmax of 340 nM (patients with Duchenne muscular dystrophy, plasma; 0.9 mg/kg/day of deflazacort, steady state, mean).
With `Cc1cc(=O)n(-c2ccccc2)n1C` the Cmax was 92500 nM (plasma; concentration not given).
The Cmax of `Nc1ccn([C@@H]2CS[C@H](CO)O2)c(=O)n1` is reported as 2200 ng/mL (healthy, mostly White or Black; 300 mg, single dose, fasted, with: abacavir 600 mg, dolutegravir 50 mg).
For `CN(C)C/C=C/C(=O)Nc1cc2c(Nc3ccc(F)c(Cl)c3)ncnc2cc1O[C@H]1CCOC1`, the Cmax was 100 nM (patients, plasma; dose not given, total concentration).
`O=C1c2cccc3c2[C@H](CCC3)CN1[C@@H]1CN2CCC1CC2` has a Cmax of 1.86 ng/mL (healthy volunteers; oral, 0.75 mg single dose, mean, with: netupitant 450 mg).
For `CCN(CC)CCNC(=O)c1c(C)[nH]c(/C=C2\C(=O)Nc3ccc(F)cc32)c1C`, the Cmax was 180 nM (patients, plasma; dose not given, total concentration).
`Sc1ncnc2nc[nH]c12` gave a Cmax of 1000 nM (plasma; concentration not given).
With `CC#CC(=O)N1CC[C@@H](n2c(=O)n(-c3ccc(Oc4ccccc4)cc3)c3c(N)ncnc32)C1` the Cmax was 63.7 to 1510 ng/mL (relapsed NHL and CLL patients, plasma; oral, 20 to 600 mg single).
`Nc1nc(NC2CC2)c2ncn([C@H]3C=C[C@@H](CO)C3)c2n1` gave a Cmax of 5680 ng/mL (Japanese HIV-infected patients; 600 mg, single dose, fasted, with: lamivudine 300 mg).
`COc1cccc2c1C(=O)c1c(O)c3c(c(O)c1C2=O)C[C@@](O)(C(=O)CO)C[C@@H]3O[C@H]1C[C@H](N)[C@H](O)[C@H](C)O1` gave a Cmax of 2930 nM (patients, plasma; dose not given, total concentration).
The Cmax of `COc1cc2ncnc(Nc3ccc(F)c(Cl)c3)c2cc1OCCCN1CCOCC1` is reported as 720 nM (plasma; concentration not given).
`COc1cc2nccc(Oc3ccc(NC(=O)C4(C(=O)Nc5ccc(F)cc5)CC4)cc3)c2cc1OC` has a Cmax of 4430 nM (patients, plasma; dose not given, total concentration).
`CCOC(=O)[N-]c1cn(N2CCOCC2)n[o+]1` gave a Cmax of 310 nM (plasma; concentration not given).
`C[C@@H](Oc1cc(-c2cnn(C3CCNCC3)c2)cnc1N)c1c(Cl)ccc(F)c1Cl` gave a Cmax of 1240 nM (patients, plasma; dose not given, total concentration).
For `CN(C)C(=O)c1cc2cnc(Nc3ccc(N4CCNCC4)cn3)nc2n1C1CCCC1`, the Cmax was 3750 nM (glioblastoma patients; 900 mg once daily, 5 days).
With `Nc1ccc(S(=O)(=O)c2ccc(N)cc2)cc1` the Cmax was 5600 nM (plasma; concentration not given).

Repeated from above:
With `Cc1cc(=O)n(-c2ccccc2)n1C` the Cmax was 92500 nM (plasma; concentration not given).
The Cmax of `Nc1ccn([C@@H]2CS[C@H](CO)O2)c(=O)n1` is reported as 2200 ng/mL (healthy, mostly White or Black; 300 mg, single dose, fasted, with: abacavir 600 mg, dolutegravir 50 mg).
